Measurements from different studies.
Lines come from different studies, so protocols differ. Numbers after ± are the reported error.
BCHE: Cholinesterase (BCHE, Equus caballus, UniProt P81908)
Chain of UniProt P81908 (whole entry, looked up): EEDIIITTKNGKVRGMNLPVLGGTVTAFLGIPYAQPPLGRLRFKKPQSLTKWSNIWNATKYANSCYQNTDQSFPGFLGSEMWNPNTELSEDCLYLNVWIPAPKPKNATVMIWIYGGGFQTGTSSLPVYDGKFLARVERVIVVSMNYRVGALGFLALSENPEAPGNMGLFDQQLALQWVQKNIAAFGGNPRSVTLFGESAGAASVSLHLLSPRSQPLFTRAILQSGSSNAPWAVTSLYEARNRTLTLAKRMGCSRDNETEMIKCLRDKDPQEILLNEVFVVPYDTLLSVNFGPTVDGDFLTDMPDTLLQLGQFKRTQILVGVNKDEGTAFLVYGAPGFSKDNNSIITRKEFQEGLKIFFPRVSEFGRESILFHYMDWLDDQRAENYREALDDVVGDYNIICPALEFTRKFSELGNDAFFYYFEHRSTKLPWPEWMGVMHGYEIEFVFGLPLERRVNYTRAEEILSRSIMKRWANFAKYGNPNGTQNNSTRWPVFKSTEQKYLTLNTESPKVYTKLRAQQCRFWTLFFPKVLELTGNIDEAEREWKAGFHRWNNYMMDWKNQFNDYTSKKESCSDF
CDK5: Cyclin-dependent kinase 5 (CDK5, Homo sapiens, UniProt Q00535)
Chain of UniProt Q00535 (whole entry, looked up): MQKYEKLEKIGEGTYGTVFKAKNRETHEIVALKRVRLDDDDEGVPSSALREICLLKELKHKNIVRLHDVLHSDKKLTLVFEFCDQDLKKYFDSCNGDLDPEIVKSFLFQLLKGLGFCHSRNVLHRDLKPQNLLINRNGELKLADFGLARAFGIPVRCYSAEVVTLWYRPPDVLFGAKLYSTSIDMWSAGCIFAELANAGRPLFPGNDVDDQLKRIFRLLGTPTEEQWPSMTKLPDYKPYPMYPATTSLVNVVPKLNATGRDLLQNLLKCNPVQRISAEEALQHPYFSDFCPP
AKR1C3: Aldo-keto reductase family 1 member C3 (AKR1C3, Homo sapiens, UniProt P42330)
Chain of UniProt P42330 (whole entry, looked up): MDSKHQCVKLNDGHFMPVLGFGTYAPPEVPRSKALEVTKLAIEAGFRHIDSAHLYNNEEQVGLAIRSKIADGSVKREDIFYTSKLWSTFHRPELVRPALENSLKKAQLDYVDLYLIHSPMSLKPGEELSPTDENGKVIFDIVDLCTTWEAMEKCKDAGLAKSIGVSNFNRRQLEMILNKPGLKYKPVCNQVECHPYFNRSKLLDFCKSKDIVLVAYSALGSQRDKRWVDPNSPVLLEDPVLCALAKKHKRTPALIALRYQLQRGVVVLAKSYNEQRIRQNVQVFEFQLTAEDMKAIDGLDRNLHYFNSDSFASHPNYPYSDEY
Chain of UniProt P07711 (whole entry, looked up): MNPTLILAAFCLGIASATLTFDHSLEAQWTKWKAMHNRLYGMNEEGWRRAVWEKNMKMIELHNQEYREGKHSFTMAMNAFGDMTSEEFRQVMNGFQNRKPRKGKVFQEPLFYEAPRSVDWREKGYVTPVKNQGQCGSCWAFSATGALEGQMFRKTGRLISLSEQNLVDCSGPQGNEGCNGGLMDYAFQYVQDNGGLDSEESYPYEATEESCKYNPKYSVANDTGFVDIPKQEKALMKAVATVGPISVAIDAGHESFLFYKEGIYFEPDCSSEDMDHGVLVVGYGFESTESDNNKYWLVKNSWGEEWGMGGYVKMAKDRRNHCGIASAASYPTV
Chain of UniProt P11388 (whole entry, looked up): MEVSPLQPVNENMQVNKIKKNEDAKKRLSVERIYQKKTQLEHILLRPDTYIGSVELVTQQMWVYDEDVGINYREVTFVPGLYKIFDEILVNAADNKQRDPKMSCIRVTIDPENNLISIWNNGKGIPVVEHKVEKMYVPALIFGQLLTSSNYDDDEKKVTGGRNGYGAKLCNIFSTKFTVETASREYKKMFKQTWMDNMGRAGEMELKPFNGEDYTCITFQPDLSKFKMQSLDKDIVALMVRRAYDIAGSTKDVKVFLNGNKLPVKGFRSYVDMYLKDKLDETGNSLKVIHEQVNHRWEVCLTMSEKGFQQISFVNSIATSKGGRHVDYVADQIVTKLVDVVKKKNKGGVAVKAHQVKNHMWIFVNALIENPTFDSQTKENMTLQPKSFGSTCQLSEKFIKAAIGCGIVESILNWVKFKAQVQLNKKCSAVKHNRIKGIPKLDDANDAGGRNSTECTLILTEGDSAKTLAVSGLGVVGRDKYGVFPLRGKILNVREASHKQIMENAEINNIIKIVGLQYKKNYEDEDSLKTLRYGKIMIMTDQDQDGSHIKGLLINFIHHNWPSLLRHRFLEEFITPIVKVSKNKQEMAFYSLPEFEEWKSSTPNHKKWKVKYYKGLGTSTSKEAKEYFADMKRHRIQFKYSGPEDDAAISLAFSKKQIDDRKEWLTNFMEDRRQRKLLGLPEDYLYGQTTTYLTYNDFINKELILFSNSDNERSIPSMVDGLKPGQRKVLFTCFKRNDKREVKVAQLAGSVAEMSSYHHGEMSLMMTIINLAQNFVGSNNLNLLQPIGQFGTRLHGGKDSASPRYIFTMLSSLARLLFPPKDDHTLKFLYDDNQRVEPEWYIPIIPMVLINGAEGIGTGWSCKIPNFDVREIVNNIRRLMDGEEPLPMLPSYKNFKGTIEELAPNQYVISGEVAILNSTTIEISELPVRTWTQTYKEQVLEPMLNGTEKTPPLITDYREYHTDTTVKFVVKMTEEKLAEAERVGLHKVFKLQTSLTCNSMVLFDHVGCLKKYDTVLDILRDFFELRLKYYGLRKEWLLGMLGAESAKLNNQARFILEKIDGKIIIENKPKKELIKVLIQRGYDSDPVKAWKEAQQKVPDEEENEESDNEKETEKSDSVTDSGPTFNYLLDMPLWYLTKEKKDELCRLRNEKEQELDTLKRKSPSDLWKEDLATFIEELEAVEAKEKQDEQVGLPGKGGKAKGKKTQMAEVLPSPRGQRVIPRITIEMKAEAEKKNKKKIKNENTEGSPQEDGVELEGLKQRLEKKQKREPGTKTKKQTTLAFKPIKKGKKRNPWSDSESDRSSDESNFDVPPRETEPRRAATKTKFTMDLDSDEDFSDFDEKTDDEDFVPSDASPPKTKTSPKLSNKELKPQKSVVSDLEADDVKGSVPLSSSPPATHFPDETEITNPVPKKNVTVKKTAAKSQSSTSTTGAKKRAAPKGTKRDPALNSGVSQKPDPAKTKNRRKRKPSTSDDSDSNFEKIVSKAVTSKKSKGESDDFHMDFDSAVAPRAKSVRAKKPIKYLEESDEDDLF
Chain of UniProt Q96RI1 (whole entry, looked up): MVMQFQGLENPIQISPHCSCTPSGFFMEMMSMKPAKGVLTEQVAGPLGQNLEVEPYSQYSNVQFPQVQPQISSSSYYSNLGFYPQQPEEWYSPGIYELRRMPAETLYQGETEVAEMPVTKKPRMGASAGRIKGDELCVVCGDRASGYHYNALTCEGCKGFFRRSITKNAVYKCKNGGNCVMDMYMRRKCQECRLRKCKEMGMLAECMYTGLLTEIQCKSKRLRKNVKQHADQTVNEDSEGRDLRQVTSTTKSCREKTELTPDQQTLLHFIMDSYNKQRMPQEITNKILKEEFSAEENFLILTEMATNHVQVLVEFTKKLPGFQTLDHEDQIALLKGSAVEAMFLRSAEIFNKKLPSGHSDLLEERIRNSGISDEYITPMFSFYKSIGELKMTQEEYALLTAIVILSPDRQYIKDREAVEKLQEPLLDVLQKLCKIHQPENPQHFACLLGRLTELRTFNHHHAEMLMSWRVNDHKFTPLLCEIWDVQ
Chain of UniProt P22894 (whole entry, looked up): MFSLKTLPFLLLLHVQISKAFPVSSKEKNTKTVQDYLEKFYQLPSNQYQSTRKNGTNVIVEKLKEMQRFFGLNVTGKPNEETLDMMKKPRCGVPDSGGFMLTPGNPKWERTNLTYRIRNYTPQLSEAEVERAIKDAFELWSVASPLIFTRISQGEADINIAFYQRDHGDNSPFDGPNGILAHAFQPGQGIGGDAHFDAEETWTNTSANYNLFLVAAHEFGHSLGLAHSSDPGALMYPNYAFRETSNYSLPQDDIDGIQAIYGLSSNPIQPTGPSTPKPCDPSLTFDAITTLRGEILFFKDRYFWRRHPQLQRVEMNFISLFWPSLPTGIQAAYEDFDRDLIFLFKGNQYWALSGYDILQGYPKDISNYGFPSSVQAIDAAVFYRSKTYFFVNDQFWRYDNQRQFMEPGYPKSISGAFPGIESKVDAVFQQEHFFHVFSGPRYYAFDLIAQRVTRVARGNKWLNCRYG
Chain of UniProt P29350 (whole entry, looked up): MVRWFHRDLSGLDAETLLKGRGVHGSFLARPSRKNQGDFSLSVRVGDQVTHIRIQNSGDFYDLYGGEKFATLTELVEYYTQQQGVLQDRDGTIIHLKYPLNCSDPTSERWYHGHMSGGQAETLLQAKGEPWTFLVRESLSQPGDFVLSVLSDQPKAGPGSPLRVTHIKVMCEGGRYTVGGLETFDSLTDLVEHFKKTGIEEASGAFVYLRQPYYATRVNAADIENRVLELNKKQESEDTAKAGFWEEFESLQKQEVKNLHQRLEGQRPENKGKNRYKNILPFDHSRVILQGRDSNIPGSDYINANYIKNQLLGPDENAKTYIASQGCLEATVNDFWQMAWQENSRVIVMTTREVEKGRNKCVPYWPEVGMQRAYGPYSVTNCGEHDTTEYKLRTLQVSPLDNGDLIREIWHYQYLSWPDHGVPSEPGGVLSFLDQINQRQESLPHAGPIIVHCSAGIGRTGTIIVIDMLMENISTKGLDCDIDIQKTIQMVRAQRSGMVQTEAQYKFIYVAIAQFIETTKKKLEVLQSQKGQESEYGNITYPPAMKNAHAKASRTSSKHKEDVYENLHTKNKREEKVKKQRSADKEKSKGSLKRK

`C[C@@](O)(C(F)F)[C@H](NC(=O)c1ccc(C#CC#CC2CC2)cc1)C(=O)NO` has an inhibition of ≤ 30% (MMP8 (Homo sapiens, UniProt P22894); enzyme activity, inhibitor; 30 µM).
`COC(=O)C1=CO[C@@H](OC(C)=O)[C@@H]2C(Cn3cc(CCO[Si](c4ccccc4)(c4ccccc4)C(C)(C)C)nn3)=CC[C@H]12` has an inhibition of 1.79 ± 0.17% (BCHE; inhibitor; horse serum BuChE; 10000 µM).
`COc1ccc(Nc2c3c(nc4ccc(Cl)cc24)CCCC3)nc1` gave an inhibition of -63.8% (BCHE; enzyme activity, inhibitor; 50 µM).
`NC1CCCCC1N.O=C1[O][Pt]([O]C(=O)c2ccc(P(c3ccccc3)c3ccccc3)cc2)([O]C(=O)c2ccc(P(c3ccccc3)c3ccccc3)cc2)[O]C1=O.[Cl][Au].[Cl][Au]` gave an inhibition of 47.3% (thioredoxin reductase; 1 µM).
`Fc1ccc(Nc2c3c(nc4ccccc24)CCCC3)cc1` gave an inhibition of -159% (BCHE; enzyme activity, inhibitor; 50 µM).
`C=CCn1nnc2c(NCc3ccc(C)s3)nc(N[C@H](CC)CO)nc21` gave an inhibition of 10 to 20% (CDK5; enzyme activity; 2 µM).
With `O=C(CN1CCN(c2cc3c(cc2F)c(=O)c(C(=O)O)cn3C2CC2)CC1)Nc1ccc(Cl)cc1` the inhibition was 96.1% (TOP2A (Homo sapiens, UniProt P11388); enzyme activity, inhibitor; 100 µM).
`COC(=O)C1=CO[C@@H](OC(C)=O)[C@@H]2C(Cn3cc(CCN4C(=O)c5ccccc5C4=O)nn3)=CC[C@H]12` gave an inhibition of 99.85 ± 0.13% (BCHE; inhibitor; horse serum BuChE; 10000 µM).
`Clc1ccc2nc3c(c(Nc4ccc5ccccc5n4)c2c1)CCCC3` gave an inhibition of -137% (BCHE; enzyme activity, inhibitor; 50 µM).
For `CCCCCCCCCCOCc1cn(CC2=CC[C@@H]3C(C(=O)OC)=CO[C@@H](OC(C)=O)[C@H]23)nn1`, the inhibition was 23.68 ± 0.17% (BCHE; inhibitor; horse serum BuChE; 10000 µM).
Under inhibition, `CC1(C)SC(C(CCc2ccccc2)B(O)O)N[C@H]1C(=O)O` (some centres unmarked) is recorded as “no inhibition” (Beta-lactamase TEM (bla, Escherichia coli, UniProt P62593, Q37K); enzyme activity, inhibitor; concentration not given, 24 h).
`c1ccc2ncc(Nc3c4c(nc5ccccc35)CCCC4)cc2c1` has an inhibition of -169% (BCHE; enzyme activity, inhibitor; 50 µM).
`NCC(CCC(N)C(=O)O)CC1OC(n2cnc3c(N)ncnc32)C(O)C1O` (centres unmarked) gave an inhibition of > 50% (DNMT3A (Homo sapiens, UniProt Q9Y6K1); enzyme activity, inhibitor; 20 µM).
Under inhibition, `COC(=O)c1ccc(NC(=O)c2cccc(CC3CCCCC3)n2)c(Cc2ccccc2)c1` is recorded as “inactive” (Capsid scaffolding protein, protease domain (Human herpesvirus 8 type P, UniProt Q2HRB6); enzyme activity, inhibitor; concentration not given, pH 8).
`CC(C)[C@H]1NC(=O)[C@H](CO)NC(=O)c2cc3cc(c2)C(=O)NC[C@H](NC(=O)[C@H](Cc2c[nH]cn2)NC(=O)[C@H](Cc2ccc(C(F)(F)P(=O)(O)O)cc2)NC(=O)[C@@H]2CCCN2C1=O)C(=O)N[C@@H](Cc1ccccc1)C(=O)N[C@@H](Cc1ccc2ccccc2c1)C(=O)N[C@@H](CCCNC(=N)N)C(=O)N[C@@H](CCCNC(=N)N)C(=O)N[C@@H](CCCNC(=N)N)C(=O)N[C@@H](CCCNC(=N)N)C(=O)N[C@H](C(=O)N[C@@H](CCCCN)C(N)=O)CNC3=O` gave an inhibition of ≤ 10% (PTPN6 (Homo sapiens, UniProt P29350); enzyme activity, inhibitor, absorbance; 1 µM).
`O=C(OCC(=O)c1ccc([N+](=O)[O-])cc1)/C(=C/c1ccc(Cl)cc1)NC(=O)c1ccccc1` has an inhibition of 20.3% (Procathepsin L (CTSL, Homo sapiens, UniProt P07711); enzyme activity, inhibitor; 50 µM).
`CC(=O)NC(Cc1ccc(Br)c(Cl)c1)C(=O)N[C@@H](C)C(=O)N1CCC[C@H]1C(=O)N1CCC[C@H]1C(=O)N[C@@H](CCC(=O)O)C(=O)N[C@@H](Cc1c[nH]cn1)C(=O)N[C@@H](CO)C(=O)N[C@H](C(=O)N[C@@H](C)C(N)=O)[C@@H](C)OP(=O)(O)O` (some centres unmarked) gave an inhibition of 0.06% (IGF1R (Homo sapiens, UniProt P08069); cell-free assay, inhibitor; 10 µM).
With `CC[C@H](C)[C@H](NC(=O)[C@H](Cc1ccc(O)cc1)NC(=O)[C@@H](NC(=O)[C@H](CCCNC(=N)N)NC(=O)[C@@H](N)CC(=O)O)C(C)C)C(=O)N[C@@H](Cc1c[nH]cn1)C(=O)N1CCC[C@H]1C(=O)N[C@@H](Cc1ccccc1)C(=O)O` the inhibition was 38% (ACE (Homo sapiens, UniProt P12821); angiotensin I hydrolysis; human serum; 5 µM, with: angiotensin I 2.5 µM).
`c1cc(Nc2c3c(nc4ccccc24)CCCC3)c2cccnc2c1` gave an inhibition of -23.3% (BCHE; enzyme activity, inhibitor; 100 µM).
With `C=CCn1cnc2c(NCc3ccc(C)s3)nc(N[C@H](CC)CO)nc21` the inhibition was 10 to 20% (CDK5; enzyme activity; 2 µM).
`C[C@@]12CC[C@H]3[C@@H](CCC4=CC(=O)C=C[C@@]43F)[C@@H]1CCC2=O` gave an inhibition of 41.7% (AKR1C3; enzyme activity, inhibitor, absorbance; 100 µM, pH 9).
For `CC(C)(C)c1ccc(Nc2c3c(nc4ccccc24)CCCC3)cc1`, the inhibition was 20% (BCHE; enzyme activity, inhibitor; 50 µM).
`C[C@]12CC[C@@H]3c4cc(Cl)c(O)c(Cl)c4CC[C@H]3[C@@H]1CCC2=O` has an inhibition of 90.4% (AKR1C3; enzyme activity, inhibitor, absorbance; 100 µM, pH 9).
`CC(C)[C@H](NC(=O)[C@H](CCCNC(=N)N)NC(=O)[C@@H](N)Cc1ccccc1)C(=O)N[C@@H](Cc1c[nH]c2ccccc12)C(=O)O` has an inhibition of 90.21 ± 0.31% (ACE (Oryctolagus cuniculus, UniProt P12822); inhibitor; rabbit; concentration not given, before incubation with ACE).
For `C[C@@]12CC[C@@H]3c4ccc(O)c(Cl)c4CC[C@H]3[C@@H]1CCC2=O`, the inhibition was 5.3% (AKR1C3; enzyme activity, inhibitor, absorbance; 10 µM, pH 9).
`CCN(Cc1ccccc1)C(=O)CCc1nc(CN2CCN(C(=O)Cc3ccc(OC)c(OC)c3)CC2)no1` has an inhibition of 0.56% (SCN1A (Homo sapiens, UniProt P35498); ion current, inhibitor, patch clamp; 10 µM).
`COC(=O)C1=CO[C@@H](OC(C)=O)[C@@H]2C(Cn3cc(CCCCN4C(=O)c5ccccc5C4=O)nn3)=CC[C@H]12` has an inhibition of 47.55 ± 0.13% (BCHE; inhibitor; horse serum BuChE; 10000 µM).
`CC1CCc2nc3ccccc3c(Nc3ccc4ccccc4n3)c2C1` (centres unmarked) gave an inhibition of -23.4% (BCHE; enzyme activity, inhibitor; 50 µM).
`O=C(Cc1c(F)c(F)c(F)c(F)c1F)N[C@H]1CCOC1=O` has an inhibition of 66% (rhlR (Pseudomonas aeruginosa, UniProt P54292); reporter gene, antagonist; Escherichia coli reporter strain; 100 µM, with: 10 µM BHL; reference: untreated).
For `CSCCNC(=O)CCC(C)C1CCC2C3C(O)CC4CC(O)CCC4(C)C3CCC12C` (centres unmarked), inhibition read “inhibited” (Bile acid receptor (NR1H4, Homo sapiens, UniProt Q96RI1); receptor activation, antagonist; concentration not given, with: obeticholic acid 25 µM).
The inhibition of `c1ccc(Nc2c3c(nc4ccccc24)CCCC3)cc1` is reported as -59.1% (BCHE; enzyme activity, inhibitor; 50 µM).
With `Cc1ccc2c(n1)c(-c1cccc(S(C)(=O)=O)c1)c(C)n2C/C(F)=C/CN` the inhibition was ≥ 85% (LOXL2 (Homo sapiens, UniProt Q9Y4K0); inhibitor, activity-based probe; healthy human subjects, plasma; oral, 100 mg once daily, 14 days, multiple ascending dose).

Some of these lines once more:
`Fc1ccc(Nc2c3c(nc4ccccc24)CCCC3)cc1` gave an inhibition of -159% (BCHE; enzyme activity, inhibitor; 50 µM).
`C=CCn1nnc2c(NCc3ccc(C)s3)nc(N[C@H](CC)CO)nc21` gave an inhibition of 10 to 20% (CDK5; enzyme activity; 2 µM).
With `O=C(CN1CCN(c2cc3c(cc2F)c(=O)c(C(=O)O)cn3C2CC2)CC1)Nc1ccc(Cl)cc1` the inhibition was 96.1% (TOP2A (Homo sapiens, UniProt P11388); enzyme activity, inhibitor; 100 µM).
